Published values of several laboratories.
“And” joins repeats or separate records; there may be more than shown. Numbers after ± are the reported error.

The viability of `O=c1n(CCNCCOS(=O)(=O)c2ccccc2)c(=O)n(S(=O)(=O)c2ccccc2)c(=O)n1S(=O)(=O)c1ccccc1` is reported as 41.3% (A549; cell growth or viability, MTT; 100 µg/mL, 24 h).
`CC(C)(C)C(=O)OCOP(=O)(OCOC(=O)C(C)(C)C)C1CCCN(O)C1=O` (stereo not drawn) has a log GI50 of -6.25 log M (OVCAR-3).
`Cc1cc(Oc2nc(N3CC[C@@H](c4ccncc4)C3)ncc2F)[nH]n1` gave an IC50 of 22.9 µM (UMUC3; cell proliferation; bladder cancer).
`NC(=S)N/N=C/c1ccc(OCc2cccc(F)c2)cc1`: “glutathione peroxidase activity (OD450)” 0.294 a.u. (IMR-32; measured: GPX3; 400 µg/mL, 24 h; higher = more activity).
For `O=C(C[Se]C(=O)c1cc2ccccc2o1)Nc1cccc(C(F)(F)F)c1`, the CC50 was 6.79 µM (NCI60 melanoma subpanel; cytotoxicity, inhibitor; five-dose).
The selectivity ratio of `CC(C)[C@H](NC(=O)[C@H](CCCNC(=N)N)NC(=O)[C@@H]1CCCN1C(=O)[C@@H](NC(=O)[C@H](C)NC(=O)[C@H](Cc1ccc(O)cc1)NC(=O)[C@H](CCC(N)=O)NC(=O)[C@H](CCCCN)NC(=O)[C@H](CCCNC(=N)N)NC(=O)[C@@H]1CCCN1C(=O)[C@H](CCC(=O)O)NC(=O)[C@@H](NC(=O)[C@H](C)N)[C@@H](C)O)[C@@H](C)O)C(=O)N[C@@H](Cc1ccccc1)C(=O)N[C@@H](Cc1c[nH]c2ccccc12)C(=O)N[C@H](C(=O)N[C@@H](CC(=O)O)C(=O)N[C@@H](C)C(=O)N1CCC[C@H]1C(=O)NCC(=O)NCCOCCOCCOCCOCCOCCOCCOCCOCCOCCOCCOCCOCCC(=O)N[C@@H](CS)C(N)=O)[C@@H](C)O` is reported as 170 ± 75 (H1299 lung large cell carcinoma; cell binding, phage binding, measured: output/input phage; 10 min, 37 °C; reference: control phage).
`O=C(O)c1ccc(-c2nc(-c3ccccc3Cl)c3sccn23)cc1` has a CD235a-positive cells of 94.6% and 94.8% and 94.4% (K562; erythroid differentiation, flow cytometry; 0.01 mM, 24 h).
For `CC(C)C[C@H](NC(=O)[C@H](CC(=O)O)NC(=O)CNC(=O)[C@@H](N)CCCNC(=N)N)C(=O)N[C@@H](C)C(=O)N[C@H](C(=O)N[C@@H](CC(C)C)C(=O)N[C@@H](CCCNC(=N)N)C(=O)N[C@@H](CCC(N)=O)C(=O)N[C@@H](CC(C)C)C(=O)N[C@@H](C)C(=O)N[C@@H](CCC(N)=O)C(=O)N[C@@H](CCC(=O)O)C(=O)N[C@@H](CC(=O)O)C(=O)NCC(=O)N[C@H](C(=O)N[C@H](C(=O)NCC(=O)N[C@H](C(=O)N[C@@H](CCCNC(=N)N)C(=O)NCCOCCOCCOCCOCCOCCOCCOCCOCCOCCOCCOCCOCCC(=O)N[C@@H](CS)C(N)=O)C(C)C)C(C)C)C(C)C)[C@@H](C)O`, the selectivity ratio was 1.8 ± 0.74 (HCC95; phage binding; reference: targeting over control phage).
For `CC(C)CC(O)(CC(C)C)c1cn(C(=O)N2CCCC2)nn1`, “SILAC ratio per peptide” read 0.81 (mouse T cells; N-terminal labelling proteomics, measured: Scye1 N-terminal peptide; 0.001 µM, 6 h; reference: DMSO).

A few entries again:
`Cc1cc(Oc2nc(N3CC[C@@H](c4ccncc4)C3)ncc2F)[nH]n1` gave an IC50 of 22.9 µM (UMUC3; cell proliferation; bladder cancer).
